Assay results gathered from unrelated publications.
Each numbered part is a random draw from the data of one study; scales do not carry over between parts.
Chain of UniProt Q06418 (whole entry, looked up): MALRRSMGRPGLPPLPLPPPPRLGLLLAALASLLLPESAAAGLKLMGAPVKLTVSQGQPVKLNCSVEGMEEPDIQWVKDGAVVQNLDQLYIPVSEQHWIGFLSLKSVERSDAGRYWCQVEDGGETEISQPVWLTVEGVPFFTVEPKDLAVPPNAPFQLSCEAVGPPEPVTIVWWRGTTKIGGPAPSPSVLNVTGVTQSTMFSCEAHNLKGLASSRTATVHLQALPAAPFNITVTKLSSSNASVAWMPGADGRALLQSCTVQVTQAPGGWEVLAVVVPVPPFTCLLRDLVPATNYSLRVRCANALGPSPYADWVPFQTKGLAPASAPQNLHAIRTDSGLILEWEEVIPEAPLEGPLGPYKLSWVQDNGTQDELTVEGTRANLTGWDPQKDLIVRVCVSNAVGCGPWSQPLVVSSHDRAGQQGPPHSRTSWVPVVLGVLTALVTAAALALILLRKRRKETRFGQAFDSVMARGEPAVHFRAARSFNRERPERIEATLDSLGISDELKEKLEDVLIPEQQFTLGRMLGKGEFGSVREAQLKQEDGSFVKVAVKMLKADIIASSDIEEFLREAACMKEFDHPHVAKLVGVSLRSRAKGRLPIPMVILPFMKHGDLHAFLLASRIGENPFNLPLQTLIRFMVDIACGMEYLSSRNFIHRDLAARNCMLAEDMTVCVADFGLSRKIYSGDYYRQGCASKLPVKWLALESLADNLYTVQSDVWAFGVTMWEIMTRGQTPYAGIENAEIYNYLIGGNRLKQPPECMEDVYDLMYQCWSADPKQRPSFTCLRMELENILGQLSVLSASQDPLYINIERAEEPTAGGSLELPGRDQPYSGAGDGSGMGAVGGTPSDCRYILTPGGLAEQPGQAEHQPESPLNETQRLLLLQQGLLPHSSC
Chain of UniProt P53667 (whole entry, looked up): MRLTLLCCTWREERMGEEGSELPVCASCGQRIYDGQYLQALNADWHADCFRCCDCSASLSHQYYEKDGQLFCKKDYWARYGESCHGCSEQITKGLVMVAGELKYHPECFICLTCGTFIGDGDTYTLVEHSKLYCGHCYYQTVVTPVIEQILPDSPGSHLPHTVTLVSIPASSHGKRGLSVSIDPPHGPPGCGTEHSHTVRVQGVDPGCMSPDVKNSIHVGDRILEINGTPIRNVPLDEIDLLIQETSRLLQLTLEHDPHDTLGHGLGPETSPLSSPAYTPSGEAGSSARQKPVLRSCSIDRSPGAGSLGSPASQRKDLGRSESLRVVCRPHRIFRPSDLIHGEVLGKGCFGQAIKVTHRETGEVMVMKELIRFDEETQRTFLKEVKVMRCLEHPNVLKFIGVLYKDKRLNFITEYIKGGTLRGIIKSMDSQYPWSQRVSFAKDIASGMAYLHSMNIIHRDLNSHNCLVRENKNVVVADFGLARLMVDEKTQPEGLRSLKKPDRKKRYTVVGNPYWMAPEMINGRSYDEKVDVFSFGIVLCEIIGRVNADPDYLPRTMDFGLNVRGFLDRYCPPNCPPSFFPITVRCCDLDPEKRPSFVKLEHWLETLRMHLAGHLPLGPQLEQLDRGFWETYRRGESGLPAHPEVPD
Chain of UniProt Q9Y6E0 (whole entry, looked up): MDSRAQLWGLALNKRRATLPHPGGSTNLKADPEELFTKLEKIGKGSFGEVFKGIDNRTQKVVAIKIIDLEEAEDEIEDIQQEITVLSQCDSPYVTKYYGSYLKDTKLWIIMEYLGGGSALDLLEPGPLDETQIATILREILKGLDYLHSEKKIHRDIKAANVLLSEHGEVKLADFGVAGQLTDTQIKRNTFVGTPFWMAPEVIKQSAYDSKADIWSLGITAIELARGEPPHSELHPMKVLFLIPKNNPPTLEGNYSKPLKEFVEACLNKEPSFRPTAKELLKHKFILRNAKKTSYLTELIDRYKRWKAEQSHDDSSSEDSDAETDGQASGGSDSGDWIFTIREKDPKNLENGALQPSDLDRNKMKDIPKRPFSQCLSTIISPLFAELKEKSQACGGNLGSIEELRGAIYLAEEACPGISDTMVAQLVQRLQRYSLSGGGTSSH
Chain of UniProt Q9UBF8 (whole entry, looked up): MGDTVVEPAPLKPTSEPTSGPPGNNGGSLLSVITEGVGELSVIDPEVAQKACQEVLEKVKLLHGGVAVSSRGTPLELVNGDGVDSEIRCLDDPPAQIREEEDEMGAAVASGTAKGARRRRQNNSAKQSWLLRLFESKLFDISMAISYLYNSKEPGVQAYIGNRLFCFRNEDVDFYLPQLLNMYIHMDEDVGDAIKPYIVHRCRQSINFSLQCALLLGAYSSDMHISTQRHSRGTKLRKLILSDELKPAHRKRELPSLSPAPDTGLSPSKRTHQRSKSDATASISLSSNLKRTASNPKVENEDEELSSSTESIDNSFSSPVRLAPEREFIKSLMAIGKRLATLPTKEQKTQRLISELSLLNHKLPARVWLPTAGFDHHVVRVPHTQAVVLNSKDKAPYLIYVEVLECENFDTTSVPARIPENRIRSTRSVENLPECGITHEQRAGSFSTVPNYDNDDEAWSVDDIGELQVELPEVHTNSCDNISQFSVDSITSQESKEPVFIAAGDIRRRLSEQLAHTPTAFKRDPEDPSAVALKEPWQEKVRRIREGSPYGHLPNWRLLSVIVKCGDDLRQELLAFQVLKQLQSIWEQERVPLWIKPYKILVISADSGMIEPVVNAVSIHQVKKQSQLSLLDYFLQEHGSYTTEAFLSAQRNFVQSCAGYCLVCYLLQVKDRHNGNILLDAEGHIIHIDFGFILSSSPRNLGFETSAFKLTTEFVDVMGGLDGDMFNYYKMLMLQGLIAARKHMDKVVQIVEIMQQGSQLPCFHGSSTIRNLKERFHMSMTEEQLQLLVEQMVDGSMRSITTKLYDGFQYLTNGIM
Chain of UniProt P42336 (whole entry, unmodified, looked up): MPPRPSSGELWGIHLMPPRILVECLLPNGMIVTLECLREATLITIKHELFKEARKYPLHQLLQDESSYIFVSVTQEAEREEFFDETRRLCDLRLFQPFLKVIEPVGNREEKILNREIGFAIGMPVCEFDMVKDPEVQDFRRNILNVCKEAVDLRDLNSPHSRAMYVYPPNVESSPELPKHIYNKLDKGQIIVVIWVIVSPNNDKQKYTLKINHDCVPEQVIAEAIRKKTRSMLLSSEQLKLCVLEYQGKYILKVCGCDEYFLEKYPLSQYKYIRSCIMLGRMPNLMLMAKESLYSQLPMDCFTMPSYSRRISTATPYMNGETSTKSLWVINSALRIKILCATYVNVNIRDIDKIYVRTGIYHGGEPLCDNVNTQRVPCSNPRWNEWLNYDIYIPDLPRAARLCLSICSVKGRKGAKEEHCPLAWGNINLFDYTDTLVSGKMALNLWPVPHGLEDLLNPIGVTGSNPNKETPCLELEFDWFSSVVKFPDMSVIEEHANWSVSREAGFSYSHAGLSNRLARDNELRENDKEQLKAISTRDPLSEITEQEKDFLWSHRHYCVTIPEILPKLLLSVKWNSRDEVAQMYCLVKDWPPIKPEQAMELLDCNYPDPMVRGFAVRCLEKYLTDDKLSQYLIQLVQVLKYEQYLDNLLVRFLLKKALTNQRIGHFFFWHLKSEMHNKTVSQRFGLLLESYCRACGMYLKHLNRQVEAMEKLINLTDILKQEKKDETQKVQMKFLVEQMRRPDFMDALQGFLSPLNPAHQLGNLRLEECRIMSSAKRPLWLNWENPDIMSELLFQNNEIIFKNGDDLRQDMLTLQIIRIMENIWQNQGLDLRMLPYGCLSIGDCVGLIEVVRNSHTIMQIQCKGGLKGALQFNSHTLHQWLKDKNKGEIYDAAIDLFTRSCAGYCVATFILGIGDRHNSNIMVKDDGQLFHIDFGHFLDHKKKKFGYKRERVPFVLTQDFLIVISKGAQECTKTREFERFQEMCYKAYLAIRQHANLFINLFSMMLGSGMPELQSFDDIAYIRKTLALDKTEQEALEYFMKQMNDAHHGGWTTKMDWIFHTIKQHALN

Set 1 — organism: Sarcocystis neurona; effect on: parasite growth; concentration: 10 µM; time: 96 h; setting: first screen; baseline: untreated
SMILES	log2 fold change
COc1ccc(/C=C/C(=O)Nc2ccccc2C(=O)O)cc1OC	-1.56
Cc1cn([C@H]2C[C@H](N=[N+]=[N-])[C@@H](CO)O2)c(=O)[nH]c1=O	0.19
O=C(CCCN1CCC(O)(c2ccc(Cl)cc2)CC1)c1ccc(F)cc1	0.17
CNCC[C@@H](Oc1ccccc1C)c1ccccc1	-0.12
CO[C@@H]1[C@@H](O[C@@H]2O[C@H](C)[C@@H](O[C@H]3C[C@@](C)(O)[C@@H](OC(=O)CC(C)C)[C@H](C)O3)[C@H](N(C)C)[C@H]2O)[C@@H](CC=O)C[C@@H](C)[C@@H](O)/C=C/C=C/C[C@@H](C)OC(=O)C[C@H]1OC(C)=O	-1.33
CNNCc1ccc(C(=O)NC(C)C)cc1	-0.00547

Set 2 — effect on: RNA clamping; technique: fluorescence polarization; concentration: concentration not given; together with: FAM-labelled poly r(AG)8 RNA
Target: Eukaryotic initiation factor 4A-III (Homo sapiens, UniProt P38919)
Chain of UniProt P38919 (whole entry, looked up): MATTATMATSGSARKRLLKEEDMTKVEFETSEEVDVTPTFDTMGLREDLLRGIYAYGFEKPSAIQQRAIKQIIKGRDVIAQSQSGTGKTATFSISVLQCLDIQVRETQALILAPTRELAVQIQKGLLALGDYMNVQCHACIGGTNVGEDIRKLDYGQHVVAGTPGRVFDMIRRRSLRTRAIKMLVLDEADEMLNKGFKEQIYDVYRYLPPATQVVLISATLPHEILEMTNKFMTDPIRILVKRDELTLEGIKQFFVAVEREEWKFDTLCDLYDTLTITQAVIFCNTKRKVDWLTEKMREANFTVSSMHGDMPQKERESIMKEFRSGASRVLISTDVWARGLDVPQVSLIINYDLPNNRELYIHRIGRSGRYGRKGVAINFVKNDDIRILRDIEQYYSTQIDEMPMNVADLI
Compound	fluorescence polarization change [mP]
COC(=O)[C@@H]1[C@@H](c2ccccc2)[C@]2(c3ccc(OC)cc3)Oc3cc(OC)cc(OC)c3[C@@]23NC(c2cccnc2)=N[C@@]13O	26.8
COc1ccc([C@@]23Oc4cc(OC)cc(OC)c4[C@]2(O)[C@H](O)[C@H](C(=O)c2ccco2)[C@H]3c2ccccc2OC)cc1	24.2
COc1ccc([C@@]23Oc4cc(OC)cc(OC)c4[C@]2(O)c2nc(C4CCCCC4)[nH]c(=O)c2[C@H]3c2ccccc2)cc1	35
COC(=O)CCCn1c(-c2ccccc2)nc2c(c1=O)[C@@H](c1ccccc1)[C@]1(c3ccc(OC)cc3)Oc3cc(OC)cc(OC)c3[C@]21O	11
COC(=O)[C@@H]1[C@@H](c2ccccc2)[C@]2(c3ccc(OC)cc3)Oc3cc(OC)cc(OC)c3[C@@]23NC(c2ccc(N(C)C)cc2)=N[C@@]13O	16.2

Set 3 — effect on: cell-free assay; technique: competition with immobilised ligand; concentration: 1 µM
Structure (SMILES): Cc1cc(-n2nc(Cc3cc(F)cc(C(F)(F)F)c3)nc2C)ccc1C(N)=O
target	remaining binding [%]
DAPK1 (Homo sapiens, UniProt P53355)	99
FLT3 (Homo sapiens, UniProt P36888, R834Q)	77
PI4KB (Homo sapiens, UniProt Q9UBF8)	100
PTK6 (Homo sapiens, UniProt Q13882)	100
BUB1 (Homo sapiens, UniProt O43683)	100
GRK2 (Homo sapiens, UniProt P25098)	100
LIM domain kinase 1 (LIMK1, Homo sapiens, UniProt P53667)	100
STK24 (Homo sapiens, UniProt Q9Y6E0)	100
MAP4K3 (Homo sapiens, UniProt Q8IVH8)	69
STK35 (Homo sapiens, UniProt Q8TDR2)	100
EGFR (Homo sapiens, UniProt P00533, G719C)	100
TYRO3 (Homo sapiens, UniProt Q06418)	100
Ribosomal protein S6 kinase alpha-5, C-terminal kinase domain (RPS6KA5, Homo sapiens, UniProt O75582)	97
PRKACB (Homo sapiens, UniProt P22694)	100
PIK3CA (Homo sapiens, UniProt P42336, E545K)	71

Set 4 — effect on: enzyme activity; mode: inhibitor; concentration: 10 µM
Target: Calcium/calmodulin-dependent protein kinase type II subunit alpha (CAMK2A, Homo sapiens, UniProt Q9UQM7)
Chain of UniProt Q9UQM7 (whole entry, looked up): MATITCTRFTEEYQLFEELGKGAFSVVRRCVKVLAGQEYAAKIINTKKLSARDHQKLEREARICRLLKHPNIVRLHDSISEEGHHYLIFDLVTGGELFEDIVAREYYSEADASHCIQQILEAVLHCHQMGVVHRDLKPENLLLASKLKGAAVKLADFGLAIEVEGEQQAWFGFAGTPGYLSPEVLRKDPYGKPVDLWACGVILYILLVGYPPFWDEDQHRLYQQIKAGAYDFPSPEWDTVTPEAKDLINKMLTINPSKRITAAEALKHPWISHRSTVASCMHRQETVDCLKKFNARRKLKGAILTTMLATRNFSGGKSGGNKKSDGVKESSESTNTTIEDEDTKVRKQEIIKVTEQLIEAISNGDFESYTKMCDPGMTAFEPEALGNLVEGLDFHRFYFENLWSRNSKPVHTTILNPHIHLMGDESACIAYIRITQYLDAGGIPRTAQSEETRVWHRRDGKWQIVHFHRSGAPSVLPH
SMILES	inhibition
COc1c(O)c(=O)n2c3ccccc3c3ccnc1c32	9%
Nc1ccc(O)c(C(=O)O)c1	21%
CC(C)=CC1CC(O)(C2CCC3(C)C2CCC2C4(C=O)CCC(OC5OCC(O)C(OC6OCC(O)C(O)C6O)C5OC5OC(C)C(O)C(O)C5O)C(C)(C)C4CCC23C)C(O)O1 (stereo not shown)	10%
COc1cc(OC)cc(C(=O)O)c1	-5%
O=c1c2ccccc2nc2n1CCc1c-2[nH]c2ccccc12	9%

Some of these lines once more (set 4):
SMILES	inhibition
COc1c(O)c(=O)n2c3ccccc3c3ccnc1c32	9%
Nc1ccc(O)c(C(=O)O)c1	21%
CC(C)=CC1CC(O)(C2CCC3(C)C2CCC2C4(C=O)CCC(OC5OCC(O)C(OC6OCC(O)C(O)C6O)C5OC5OC(C)C(O)C(O)C5O)C(C)(C)C4CCC23C)C(O)O1 (stereo not shown)	10%
COc1cc(OC)cc(C(=O)O)c1	-5%
O=c1c2ccccc2nc2n1CCc1c-2[nH]c2ccccc12	9%
